Assay results gathered from unrelated publications.
A part holds a random share of what one study measured.

Block 1 — method: protein-binding microarray; molecule type: double-stranded DNA, one strand shown; medium: in vitro; concentration: 2200 nM top; setting: 60-bp whole probe; added: salmon DNA 0.4 mg/ml; reference: random background probes; reading: higher = stronger binding; all sequences stand within: GCCTAGCAC … GTCTTGATTCGCTTGACGCTGCTG
Target: Interferon regulatory factor 7, full length, phosphomimetic (IRF7, Homo sapiens, UniProt Q92985, residues 1-503, S471D/S472D/S475D/S476D/S477D/S483D/S484D/S487D)
UniProt Q92985, sequence (whole entry, unmodified, looked up): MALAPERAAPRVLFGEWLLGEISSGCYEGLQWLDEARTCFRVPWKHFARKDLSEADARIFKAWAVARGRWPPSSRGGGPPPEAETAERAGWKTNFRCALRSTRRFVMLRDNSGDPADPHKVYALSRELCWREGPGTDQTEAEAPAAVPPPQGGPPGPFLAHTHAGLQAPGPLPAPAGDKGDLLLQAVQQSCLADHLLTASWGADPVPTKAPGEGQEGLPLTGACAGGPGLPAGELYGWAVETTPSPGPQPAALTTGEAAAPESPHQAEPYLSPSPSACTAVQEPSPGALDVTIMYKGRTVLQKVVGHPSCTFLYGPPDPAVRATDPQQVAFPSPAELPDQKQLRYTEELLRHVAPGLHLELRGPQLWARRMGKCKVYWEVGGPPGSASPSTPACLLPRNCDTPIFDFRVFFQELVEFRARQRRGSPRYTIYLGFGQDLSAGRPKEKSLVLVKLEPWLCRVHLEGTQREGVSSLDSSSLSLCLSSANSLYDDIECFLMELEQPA
Under “fitted relative affinity”, `GACGATATCAGACTGGAGAGGTGCTAG` is recorded as -0.146 z-score.
`GACGGGCTGGGTTTCGGGACGTGCTAG`: “fitted relative affinity” 0.606 z-score.
For `TGAGATTTCGGGACTGGATTAGTGCTA`, “fitted relative affinity” read 0.786 z-score.
`GACGATTCCCGTTTCGAGACGTGCTAG` — result for “fitted relative affinity”: 3.09 z-score.
Under “fitted relative affinity”, `AAGGGTCTCTTGTTCTCTCTGTGCTAG` is recorded as 0.602 z-score.
`CAGAGCCTCAGGCCTCACACAGTGCTA` — result for “fitted relative affinity”: -0.86 z-score.
Under “fitted relative affinity”, `TTAGGACTGGGATATCGGTTAGTGCTA` is recorded as -0.232 z-score.

Block 2 — method: universal PBM; molecule type: double-stranded DNA, one strand shown; medium: in vitro; concentration: not given; reading: higher = stronger binding
Target: Sal-like protein 4, full length isoform B (SALL4, Homo sapiens, UniProt Q9UJQ4-2, residues 1-616)
Setting: 8-mer, flanks averaged, mean of replicates
The E-score of `AATACTCT` is reported as 0.303.
`CCGTACAA` has an E-score of 0.059.
The E-score of `CAGCACTC` is reported as -0.0743.
`TCCCAAAA` gave an E-score of 0.133.
The E-score of `AGCAAAAA` is reported as 0.24.
With `CTAGGCCA` the E-score was -0.188.
For `CGCAGTCA`, the E-score was -0.0626.
For `AAAGGGAT`, the E-score was 0.202.
For `AAGATAGC`, the E-score was 0.0548.

Block 3 — method: aptamer microarray, sandwich; molecule type: DNA with 2'F-ANA; medium: in vitro; concentration: 200 nM; added: Cy3 exosite-II aptamer, 400 nM; reading: higher = stronger binding; strand: GGTTGGTGTGGTTGG
Target: Prothrombin, mature alpha-thrombin (F2, Homo sapiens, UniProt P00734)
Setting: whole 15-mer aptamer, many near background
`2'F-ANA at 1 3 4 5 6 8 9 14 15`: “mean fluorescence intensity” 49.7 a.u.
`2'F-ANA at 3 4 7 8 9 10 12` — result for “mean fluorescence intensity”: 487 a.u.
`2'F-ANA at 2 5 7 10 11 12 14`: “mean fluorescence intensity” 43.7 a.u.
`2'F-ANA at 1 3 4 5 6 8 10 13` — result for “mean fluorescence intensity”: 57.5 a.u.
`2'F-ANA at 2 3 7 8 10 11 15`: “mean fluorescence intensity” 347 a.u.
Under “mean fluorescence intensity”, `2'F-ANA at 2 3 7 9 10 11 13` is recorded as 363 a.u.
`2'F-ANA at 10 11 14 15`: “mean fluorescence intensity” 96.4 a.u.
`2'F-ANA at 1 4 6 7 8 11 12 13 14`: “mean fluorescence intensity” 55.8 a.u.

Mixed results
With `PhoQ, residues 284 288 289 292 302 303 SSCCRF` the fold induction was 2.32 (PhoP, residues 12 14 15 18 19 LWHVM (Escherichia coli, UniProt P23836); Sort-seq, refers to: YFP reporter; E. coli; PhoQ-PhoP variant library, added: 10 µM Mg2+; reference: high Mg2+ state, higher = stronger signaling).

Excerpt of the above (block 3):
`2'F-ANA at 2 5 7 10 11 12 14`: “mean fluorescence intensity” 43.7 a.u.
`2'F-ANA at 1 3 4 5 6 8 10 13` — result for “mean fluorescence intensity”: 57.5 a.u.
